Measured values collected from several papers.
A part holds a random share of what one study measured. Changes are numbered by the printed parent chain.
Chain of UniProt Q8N2K1 (whole entry, looked up): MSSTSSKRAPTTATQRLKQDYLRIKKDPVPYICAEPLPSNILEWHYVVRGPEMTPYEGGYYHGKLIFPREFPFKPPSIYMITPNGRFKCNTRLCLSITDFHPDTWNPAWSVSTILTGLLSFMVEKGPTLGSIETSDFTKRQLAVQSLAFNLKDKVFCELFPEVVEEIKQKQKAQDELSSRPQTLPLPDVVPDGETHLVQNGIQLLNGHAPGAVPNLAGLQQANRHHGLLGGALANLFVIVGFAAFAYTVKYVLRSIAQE
Chain of UniProt P61081 (whole entry, looked up): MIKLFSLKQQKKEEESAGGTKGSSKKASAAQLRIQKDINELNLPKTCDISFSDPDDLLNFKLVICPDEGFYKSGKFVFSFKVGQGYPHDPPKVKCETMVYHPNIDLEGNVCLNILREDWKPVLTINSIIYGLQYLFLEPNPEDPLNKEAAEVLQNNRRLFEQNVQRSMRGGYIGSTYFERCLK
Chain of UniProt Q9NPD8 (whole entry, looked up): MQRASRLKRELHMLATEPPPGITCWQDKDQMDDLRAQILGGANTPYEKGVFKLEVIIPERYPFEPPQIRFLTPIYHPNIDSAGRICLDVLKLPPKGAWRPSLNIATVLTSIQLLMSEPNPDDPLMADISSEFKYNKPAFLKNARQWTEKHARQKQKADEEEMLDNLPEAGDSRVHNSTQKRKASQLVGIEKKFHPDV
Chain of UniProt P62253 (whole entry, looked up): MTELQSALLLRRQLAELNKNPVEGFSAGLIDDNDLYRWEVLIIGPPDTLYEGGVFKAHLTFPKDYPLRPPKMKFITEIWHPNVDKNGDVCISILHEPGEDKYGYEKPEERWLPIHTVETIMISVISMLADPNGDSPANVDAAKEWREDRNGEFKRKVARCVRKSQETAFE
Chain of UniProt Q9Y385 (whole entry, looked up): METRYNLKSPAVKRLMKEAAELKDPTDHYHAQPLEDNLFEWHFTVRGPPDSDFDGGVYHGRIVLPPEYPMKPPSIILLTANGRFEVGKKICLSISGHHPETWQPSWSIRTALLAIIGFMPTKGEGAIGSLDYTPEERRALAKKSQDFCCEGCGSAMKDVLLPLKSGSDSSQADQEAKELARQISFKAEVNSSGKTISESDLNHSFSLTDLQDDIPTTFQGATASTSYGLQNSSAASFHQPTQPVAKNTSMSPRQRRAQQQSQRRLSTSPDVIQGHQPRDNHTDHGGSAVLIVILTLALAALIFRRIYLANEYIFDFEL
Chain of UniProt P63146 (whole entry, looked up): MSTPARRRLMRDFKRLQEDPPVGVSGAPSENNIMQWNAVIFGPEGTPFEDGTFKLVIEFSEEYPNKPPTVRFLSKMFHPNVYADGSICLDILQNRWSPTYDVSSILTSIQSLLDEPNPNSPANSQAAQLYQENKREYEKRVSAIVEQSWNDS
Chain of UniProt P51668 (whole entry, looked up): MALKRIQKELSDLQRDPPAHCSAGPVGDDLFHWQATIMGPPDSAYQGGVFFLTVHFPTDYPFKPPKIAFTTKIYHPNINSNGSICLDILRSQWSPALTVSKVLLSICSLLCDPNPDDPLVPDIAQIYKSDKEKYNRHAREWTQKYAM
Chain of UniProt Q969T4 (whole entry, looked up): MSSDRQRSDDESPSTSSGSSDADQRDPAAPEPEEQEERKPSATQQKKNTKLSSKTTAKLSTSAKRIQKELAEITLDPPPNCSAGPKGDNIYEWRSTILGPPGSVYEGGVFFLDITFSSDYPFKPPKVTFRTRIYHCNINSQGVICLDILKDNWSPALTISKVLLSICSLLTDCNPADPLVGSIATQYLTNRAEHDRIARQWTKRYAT

Study 1
Target: Centromere-binding protein 1, full length, His-tagged (CBF1, Saccharomyces cerevisiae, UniProt P17106, residues 1-351)
Chain of UniProt P17106 (whole entry, looked up): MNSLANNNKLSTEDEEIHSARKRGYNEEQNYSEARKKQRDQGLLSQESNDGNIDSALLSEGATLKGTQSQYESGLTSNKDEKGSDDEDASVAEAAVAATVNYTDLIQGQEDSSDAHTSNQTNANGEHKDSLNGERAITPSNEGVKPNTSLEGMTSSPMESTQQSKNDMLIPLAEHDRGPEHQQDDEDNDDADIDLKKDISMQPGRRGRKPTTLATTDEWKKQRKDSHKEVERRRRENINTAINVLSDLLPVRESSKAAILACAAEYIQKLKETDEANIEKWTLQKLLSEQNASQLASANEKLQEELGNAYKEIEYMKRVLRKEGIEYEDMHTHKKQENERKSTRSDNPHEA
Technique: competition protein-binding microarray
Form: double-stranded DNA, one strand shown
Medium: in vitro
Concentration: 2 µM
Setting: whole 60-bp probe, lowest competitor level
Added: Pho4 competitor, 0.05 µM
Reading: higher = stronger binding
Constant ends, left off below: … GTCTTGATTCGCTTGACGCTGCTG
Sequence	fluorescence intensity [a.u.]
TAGCCTTAAATCCTGAACGTGGAGGCGATTATTTCA	68.3
CTTCTGTAAATTTTTCACGTGTGCTGACGCGCCCCG	671
ATAAAAACACTGCGCAGCGTGCTTTTTCGGGTTCCA	87.8
GGCGCAAATAGTTGCCACGTGCGATTGCGGTGTATG	1420
TGGACGCAATTGGTTGGTGTGACGCCACTTTCTCTT	79.9
CTTTCCCGATCTTGATCCGTGGGTGTAGCACATTTG	64.6
CATACCCAACCTTGCCAAGTGGGTGAAGATATTTGT	64
AGATTTAGTCTATCCCACATGACAGGCAACAGCTCG	182
AGGGTGTTGATGGTGCTCGTGTTGAATACATTTGTG	99
CAGAGAACCGGTAGCCACATGCAAACTAAAACTTTC	103
CCTAGCACTCGCTATTTCGTGACGGCGTTCCAGGAC	70.2
GTATTCTCGGATCGGCACGCAAGCGCAATGCTGAGA	64.2
CTAACGAAGGTTTGGATTGTGGGTGACAAGCCAAGT	78.7
TTTACGCGCGGTGTTTTCGTGGCCGTACCGCATTGG	69.7
GTTGAAGTTACCCGTCACGTCAAAGTTTTCACCGGA	83.3
TGCAAGCTTTAAAGCACCGTGGTGATTCTCGTAATG	92.1

Study 2
Target: ABI1, truncated, D143A, DHFR fusion (Arabidopsis thaliana)
Technique: DHFR PCA, deep sequencing
Medium: yeast
Setting: methotrexate growth selection, single substitutions
Added: (+)-ABA 0.032 µM
Reference: wild-type fitted maximum
Reading: higher = stronger binding
Starting sequence: PYL1, truncated, DHFR fusion (Arabidopsis thaliana); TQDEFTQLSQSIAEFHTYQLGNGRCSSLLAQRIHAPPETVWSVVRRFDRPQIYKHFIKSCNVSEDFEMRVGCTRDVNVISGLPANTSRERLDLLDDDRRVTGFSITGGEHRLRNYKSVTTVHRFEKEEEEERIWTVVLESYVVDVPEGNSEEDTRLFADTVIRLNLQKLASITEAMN
Change	relative binding score [%]
K116R	36.3
Q51R	2.44
Q10P	32.7
V70E	9.61
W134R	5.3
H110Q	42.2
N165Q	4.32
G21C	12.1
N165K	1.5
T154M	1.45
V43Y	-4.31
T39C	15.7
K54E	1.61
E4V	38.1
P37W	-1.31
T86S	19.5
T119H	-3.47
G148E	1.43

Study 3
Target: CCNE1, cyclin fold, Cln2 fusion (human)
Technique: yeast growth competition, sequencing
Medium: yeast
Setting: weak parent motif
Reference: not given
Reading: higher = stronger binding
Starting sequence: PKN2 docking peptide (human); VSAVQKLDFSDTM
Change	normalised enrichment score
VSAVQKLDFQDTM [S10Q]	-0.289
VSAVQKWDFSDTM [L7W]	0.3
NSAVQKLDFSDTM [V1N]	0.782
VSAVQKLDFSDTC [M13C]	0.492
VSAVQKLTFSDTM [D8T]	0.37
VYAVQKLDFSDTM [S2Y]	1.13
VSAVQKLDLSDTM [F9L]	0.0047
VSAVQKLPFSDTM [D8P]	0.408
VTAVQKLDFSDTM [S2T]	0.807
VLAVQKLDFSDTM [S2L]	0.372
VSANQKLDFSDTM [V4N]	-0.3
VSAVQKLDFSDEM [T12E]	1.46
VSARQKLDFSDTM [V4R]	0.369
VSAVQKLDSSDTM [F9S]	0.179
VSAVQKLDISDTM [F9I]	-0.0537
VSAPQKLDFSDTM [V4P]	0.833
VSAVQKLDFSHTM [D11H]	0.563
VSAVQKLNFSDTM [D8N]	0.395
VSAVQILDFSDTM [K6I]	0.466

Study 4
Sequence: B1 (PRKN RING domain)
Technique: yeast two-hybrid
Medium: yeast
Setting: mostly zero background
Reference: not given
Reading: higher = stronger interaction
B1: PRKN RING domain (UniProt O60260); chain LIATNSRNITCITCTDVRSPVLVFQCNSRHVICLDCFHLYCVTRLNDRQFVHDPQLGYSLPCVAGCPNSLIKELHH
target	lacZ reporter activity
UBE2J1 UBC core domain (UniProt Q9Y385)	0
UBE2D1 UBC core domain (UniProt P51668)	0
UBE2J2 UBC core domain (UniProt Q8N2K1)	0
UBE2E3 UBC core domain (UniProt Q969T4)	0
UBE2M UBC core domain (UniProt P61081)	0
UBE2T UBC core domain (UniProt Q9NPD8)	0
UBE2B UBC core domain (UniProt P63146)	0
UBE2G1 UBC core domain (UniProt P62253)	0

Study 5
Target: RING finger protein unkempt homolog, zinc fingers 1-6, GST-SBP tag (UNK, Homo sapiens, UniProt Q9C0B0, residues 30-357)
Chain of UniProt Q9C0B0 (30-357, looked up): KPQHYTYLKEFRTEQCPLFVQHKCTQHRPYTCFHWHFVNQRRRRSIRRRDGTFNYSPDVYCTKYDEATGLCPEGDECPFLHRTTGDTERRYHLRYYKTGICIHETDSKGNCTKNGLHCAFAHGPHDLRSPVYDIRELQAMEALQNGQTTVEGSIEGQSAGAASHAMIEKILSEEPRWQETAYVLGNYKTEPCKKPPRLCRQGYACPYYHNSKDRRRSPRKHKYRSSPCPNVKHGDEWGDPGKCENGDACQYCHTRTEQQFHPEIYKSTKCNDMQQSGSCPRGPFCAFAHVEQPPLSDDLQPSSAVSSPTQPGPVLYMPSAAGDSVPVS
Technique: RNA Bind-n-Seq
Form: RNA
Medium: in vitro
Concentration: not given
Setting: RNA with constant flanks, human and mouse sites, ends assumed
Reference: input RNA pool
Reading: higher = stronger binding
Constant ends, left off below: GGGAGUUCUACAGUCCGACGAUC … CAACAGAGGAUUGAGCAUCA
Sequence	bound/input enrichment [ratio]
GCUUUCCCUGCCUUCCUGGGGACCGAGGCCUCCAGCUCAGGCAAUGGCUCCUGGCUGGAGCUGAUACCACUGGCUGCUGUGAGCGUCCACCUGCUAACAGGCAAUGGGACAGAGGUGCCU	0.153
AAAGUUUUCUUUACAGAGAAAUUUGGAUUUUCUUCCCAGGCAGCAAGUGCAAUUAACAGUGUUGUAUAUGUCAUAUCAGCUCCCAUGUCCCCGGUGUUUGGGCUCCUGGUGGAUAAAACA	0.213
UUCUAAGCAUACCUUUGGAAUUUUUCCAUCUUUUUUGAGGCUUUUGGUCCAGUGAAGUUCUAAGUAUUCACUGGCACUUCUCUCCUCAACUGUAAUUCUAUUUUUAAUAAUAAAAAUGGC	0.364
CAAUAUAUAUCUCCAUUUCAUGAUAUUCCAAUUUAUGCAGAUAAGGAUGUGUUUCACAUGGUAGUUGAAGUACCACGCUGGUCUAAUGCAAAAAUGGAGAUUGCUACAAAGGACCCUUUA	0.166
UUAAUCAUAAUCAUGUUCAUGGACAUAAAUAUUUCAUUGCAAGUCACUCACUUCUAGAAUUUGAUGUUACGUCAUAUCACAUUUUAUAAACCUAUGUUAAGCUUAUGUAUAUGUUAUUAC	1.13
UCAGUGGGAAGCAAUGGGCUUCUGGACUUUGAUUCAGAAUAUCAGGAGCUCUGGGAUUGGCUGAUUGACAUGGAGUCCCUUGUGAUGGACAGCCACGACCUGAUGAUGUCAGAGGAGCAG	0.17
UUAAAUUUUCCAUUAAUUUCAACAUAAUUAUGGGAACAAGUGUACAGAAGAAUUUUUUUUUUAAGAUAUGUGAGAACUUUUCAUAGAUGAACUUUUUAACAAAUGUUUUCAUUUACAGGA	1.19
GUUCUGGCUGAUAGAUUGUCGACAGAUCCAGGAAUCCGUUACUUUUGCAUCACAAGUAUACAGAGAAAUUAUCUGCGUACCUUAUAUGGCCAAAUUUGUAGUGUUUGCCAAAUCACAUGA	0.187

Study 6
Target: Fragile X messenger ribonucleoprotein 1, C-terminal low-complexity region (Fmr1, Mus musculus, UniProt P35922)
Technique: RNA Bind-n-Seq
Form: RNA
Medium: in vitro
Concentration: 200 nM
Setting: whole 134-nt RNA, ends assumed
Added: 150 mM LiCl
Reference: input library
Reading: higher = stronger binding
Library: 7-deaza-guanosine replaces G
Constant ends, left off below: GGGAGUUCUACAGUCCGACGAUC … UGGAAUUCUCGGGUGUCAAGG
Sequence	log2 enrichment
GCAGGAAGUAAAAACAAAUGGAAAUGCUUCGGAUAGUGGCAGGGGUGGGGGUUGCUAAGGAAAGGGUGAAAUGGGAGUGGGUAAAGAGUU	1.63
UGUGAGAUUAAACUUGCCCCCAAACGAUCUCGUUUGGAGACUAGAGCUGGAGAAGAAGAUGAAGGAGAAGAGGAUUCUGAUUCUGAUUAU	-1.47
UGAUCUCCAGGAUGACAUGCGAAGAUGCCAAAUCAUCCGAGACAUGAUUGGACCGGAAAAGACUUUGGUAAAUAUCCUCUCACACCACUA	0.762
UCAAGUCCUGUGCUACACAUCGUAUGUACCGAAUCGGAAAGGUGGAAAAAAAGGAAAGUAUUAUGUUACGCCGUUCGGAUCUGCACUUCC	-0.502
UGGGAGGUGGAUUUUGUUUAUUUUUUUAGCUCAUUUCCAGGGGUGGGAAUUUUUUUUUAAUAUGUGUCAUGAUUAAAGUUGUUUUUGAAA	0.0567
AUUAUAGACUUGAUCAAAACACAGGAAAAGGCAACUCCCAGGAACUUUCCGCCACGAUUCCAGGAUGGAUAUUACAGCUGACAGCUUUUC	-0.687
UUAAGAAUAUUUAGAUAUUUGUAAAAGAAUUUGAAUGAUUUAUUUAAUAUAACGUUUAUUUUAUUAGCUCUAUUCCAAUUGAUUACAACC	-3.72
UCAAGUCCUGUGCUACACAUCGUAUGUACCGAAUCGGUUUGGUUUGGGUUUGGGGAAAGUAUUAUGUUACGCCGUUCGGAUCUGCACUUC	-1.7
CUCAAGUCCUGUGCUACACAUCGUAUGUACCGAAUCGGGGUUGGGUUGGUUGGAAAGUAUUAUGUUACGCCGUUCGGAUCUGCACUUCCA	0.0678
GUCCUGUGCUACACAUCGUAUGUACCGAAUCAAACCCCCAAACCCAAAUUUUUUUAAAAAAGUAUUAUGUUACGCCGUUCGGAUCUGCAC	1.43
CCUGUGCUACACAUCGUAUGUACCGAAUCGGGUUUUUUUGGGAAAAAAAGGGUUUUUGGGAAAGUAUUAUGUUACGCCGUUCGGAUCUGC	-2.84

Excerpt of the above (study 1):
Sequence	fluorescence intensity [a.u.]
TGGACGCAATTGGTTGGTGTGACGCCACTTTCTCTT	79.9
CTTTCCCGATCTTGATCCGTGGGTGTAGCACATTTG	64.6
CATACCCAACCTTGCCAAGTGGGTGAAGATATTTGT	64
AGATTTAGTCTATCCCACATGACAGGCAACAGCTCG	182
AGGGTGTTGATGGTGCTCGTGTTGAATACATTTGTG	99
CAGAGAACCGGTAGCCACATGCAAACTAAAACTTTC	103
CCTAGCACTCGCTATTTCGTGACGGCGTTCCAGGAC	70.2
GTATTCTCGGATCGGCACGCAAGCGCAATGCTGAGA	64.2
